Earlier results that unrelated publications cite.
Numbered parts are unrelated; values within a part may stem from several laboratories. ± gives the spread as reported.

Study 1
Target: HLA class I histocompatibility antigen, B alpha chain, allele B*18:01 (Homo sapiens, UniProt P01889)
Effect on: peptide-MHC binding
Molecule type: peptide
Molecule	IC50 [µM]
FEFTSFFY	< 0.001
FESVAWSA	0.00569
DEQSIAEA	0.00448

Other studies, line by line
Structure (SMILES)	tested on	test	system	endpoint	value
[Cu+2].[O-][Cl+3]([O-])([O-])[O-].[O-][Cl+3]([O-])([O-])[O-]	MCF7	cell growth		IC50	6.4 ± 0.5 µM
O=[N+]([O-])O	anion exchanger, human	substrate	neutrophils	Km	8.4 mM
O=C1c2cccc3c2[C@H](CCC3)CN1[C@@H]1CN2CCC1CC2	hERG (human)	inhibitor		IC50	2.04 µM
N.N.[Cl][Pt][Cl]	HeLa			IC50	13.3 ± 3.84 µM
Cc1nc2c([nH]1)-c1ccccc1N(C(=O)c1ccc(NC(=O)c3ccccc3-c3ccccc3)cc1)CC2	hERG (human)	inhibitor		IC50	2.24 µM
N#CC(=Cc1ccc(O)cc1)C(=O)O	mitochondrial monocarboxylate transporter (rat)	monocarboxylate transport, inhibitor	rat liver mitochondria	Ki	6 µM

A few entries again (study 1):
Molecule	IC50 [µM]
FEFTSFFY	< 0.001
